Measurements of several laboratories.
Numbered parts are unrelated; each lists some results of a single study. Substitutions count along the parent as printed.
Sequence of UniProt Q9SKN5 (whole entry, looked up): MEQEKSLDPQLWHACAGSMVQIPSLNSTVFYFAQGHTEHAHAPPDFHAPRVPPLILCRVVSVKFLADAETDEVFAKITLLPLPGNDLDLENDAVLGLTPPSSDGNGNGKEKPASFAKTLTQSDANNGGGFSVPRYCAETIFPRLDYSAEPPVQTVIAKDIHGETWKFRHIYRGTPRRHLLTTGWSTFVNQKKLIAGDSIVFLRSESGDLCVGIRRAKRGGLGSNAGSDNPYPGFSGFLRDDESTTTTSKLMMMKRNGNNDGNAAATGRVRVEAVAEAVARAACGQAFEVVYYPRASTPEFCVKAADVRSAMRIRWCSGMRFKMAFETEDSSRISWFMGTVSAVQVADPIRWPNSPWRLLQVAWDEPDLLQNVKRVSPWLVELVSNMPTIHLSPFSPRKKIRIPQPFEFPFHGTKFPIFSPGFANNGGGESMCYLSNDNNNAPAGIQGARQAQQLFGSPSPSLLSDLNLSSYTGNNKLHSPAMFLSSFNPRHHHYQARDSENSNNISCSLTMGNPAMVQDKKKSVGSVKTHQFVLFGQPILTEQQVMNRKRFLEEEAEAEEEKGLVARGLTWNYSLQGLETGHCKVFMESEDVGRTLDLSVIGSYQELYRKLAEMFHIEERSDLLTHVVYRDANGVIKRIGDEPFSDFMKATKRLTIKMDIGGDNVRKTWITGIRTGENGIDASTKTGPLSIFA
Sequence of UniProt Q9XID4 (whole entry, looked up): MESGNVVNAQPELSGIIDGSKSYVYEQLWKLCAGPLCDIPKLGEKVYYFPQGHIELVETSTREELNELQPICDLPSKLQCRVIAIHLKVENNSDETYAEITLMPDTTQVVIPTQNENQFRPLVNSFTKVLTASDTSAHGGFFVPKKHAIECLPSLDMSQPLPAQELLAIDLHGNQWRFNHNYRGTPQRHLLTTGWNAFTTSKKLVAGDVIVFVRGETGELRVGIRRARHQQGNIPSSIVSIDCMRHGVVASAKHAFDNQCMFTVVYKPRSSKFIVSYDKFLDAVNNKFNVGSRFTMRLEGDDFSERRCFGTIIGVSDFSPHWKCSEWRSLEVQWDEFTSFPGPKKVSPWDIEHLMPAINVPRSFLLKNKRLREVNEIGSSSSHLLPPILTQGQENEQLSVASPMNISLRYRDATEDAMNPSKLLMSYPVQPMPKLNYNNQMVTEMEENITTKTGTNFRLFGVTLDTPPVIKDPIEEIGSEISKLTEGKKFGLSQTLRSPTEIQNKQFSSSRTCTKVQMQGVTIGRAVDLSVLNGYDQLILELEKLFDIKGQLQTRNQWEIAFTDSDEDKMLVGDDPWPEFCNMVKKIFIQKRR
Sequence of UniProt P93022 (whole entry, looked up): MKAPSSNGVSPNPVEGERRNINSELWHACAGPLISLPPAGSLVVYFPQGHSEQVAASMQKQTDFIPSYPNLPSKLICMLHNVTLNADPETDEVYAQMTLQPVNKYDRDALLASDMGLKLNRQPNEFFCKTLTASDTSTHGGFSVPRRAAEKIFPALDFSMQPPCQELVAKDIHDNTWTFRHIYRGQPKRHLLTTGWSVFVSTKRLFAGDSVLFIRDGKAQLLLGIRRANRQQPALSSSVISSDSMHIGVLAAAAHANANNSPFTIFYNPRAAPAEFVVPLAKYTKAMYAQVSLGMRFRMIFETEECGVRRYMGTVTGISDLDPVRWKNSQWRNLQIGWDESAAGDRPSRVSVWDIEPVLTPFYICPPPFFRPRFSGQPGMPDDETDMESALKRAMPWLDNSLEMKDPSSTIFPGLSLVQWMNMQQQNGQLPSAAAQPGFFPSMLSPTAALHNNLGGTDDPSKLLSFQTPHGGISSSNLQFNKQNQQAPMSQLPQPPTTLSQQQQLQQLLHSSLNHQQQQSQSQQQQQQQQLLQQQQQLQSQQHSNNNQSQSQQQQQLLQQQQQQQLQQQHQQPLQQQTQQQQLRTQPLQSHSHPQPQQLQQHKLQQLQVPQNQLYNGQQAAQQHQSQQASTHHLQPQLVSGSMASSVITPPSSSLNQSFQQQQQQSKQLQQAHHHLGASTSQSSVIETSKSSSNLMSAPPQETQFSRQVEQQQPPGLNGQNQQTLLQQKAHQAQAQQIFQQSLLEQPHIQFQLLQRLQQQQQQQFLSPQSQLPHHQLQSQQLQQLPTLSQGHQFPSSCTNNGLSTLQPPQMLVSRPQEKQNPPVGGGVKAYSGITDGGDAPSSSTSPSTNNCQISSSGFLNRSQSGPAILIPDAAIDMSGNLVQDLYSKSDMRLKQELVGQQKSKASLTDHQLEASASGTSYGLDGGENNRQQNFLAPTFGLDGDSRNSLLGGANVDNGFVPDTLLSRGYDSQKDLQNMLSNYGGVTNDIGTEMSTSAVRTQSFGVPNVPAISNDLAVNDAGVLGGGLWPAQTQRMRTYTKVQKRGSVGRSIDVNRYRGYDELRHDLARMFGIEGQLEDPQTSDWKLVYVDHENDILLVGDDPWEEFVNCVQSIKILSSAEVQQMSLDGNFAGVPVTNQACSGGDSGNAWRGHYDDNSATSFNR
Sequence of UniProt Q9FGV1 (whole entry, looked up): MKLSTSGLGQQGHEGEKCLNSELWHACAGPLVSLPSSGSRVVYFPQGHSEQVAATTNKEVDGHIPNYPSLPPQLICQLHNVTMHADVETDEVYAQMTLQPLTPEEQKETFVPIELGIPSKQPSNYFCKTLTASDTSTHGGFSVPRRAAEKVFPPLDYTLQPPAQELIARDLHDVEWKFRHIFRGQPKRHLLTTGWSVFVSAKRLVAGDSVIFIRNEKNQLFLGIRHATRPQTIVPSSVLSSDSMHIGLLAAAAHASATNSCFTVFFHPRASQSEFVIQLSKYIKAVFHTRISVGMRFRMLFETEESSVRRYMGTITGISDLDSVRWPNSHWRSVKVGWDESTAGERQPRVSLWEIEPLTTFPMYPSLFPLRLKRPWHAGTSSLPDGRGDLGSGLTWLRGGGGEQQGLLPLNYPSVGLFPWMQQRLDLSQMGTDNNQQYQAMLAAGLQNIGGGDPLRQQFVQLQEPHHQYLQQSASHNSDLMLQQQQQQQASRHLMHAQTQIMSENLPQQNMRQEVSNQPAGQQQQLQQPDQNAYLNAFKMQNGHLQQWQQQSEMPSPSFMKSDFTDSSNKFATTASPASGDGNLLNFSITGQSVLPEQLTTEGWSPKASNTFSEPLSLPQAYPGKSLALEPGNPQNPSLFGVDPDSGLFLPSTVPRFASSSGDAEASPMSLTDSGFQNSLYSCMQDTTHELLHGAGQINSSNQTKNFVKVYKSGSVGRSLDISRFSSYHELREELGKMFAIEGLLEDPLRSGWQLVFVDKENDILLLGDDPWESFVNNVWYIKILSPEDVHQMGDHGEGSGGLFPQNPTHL
Sequence of UniProt Q9FKM7 (whole entry, looked up): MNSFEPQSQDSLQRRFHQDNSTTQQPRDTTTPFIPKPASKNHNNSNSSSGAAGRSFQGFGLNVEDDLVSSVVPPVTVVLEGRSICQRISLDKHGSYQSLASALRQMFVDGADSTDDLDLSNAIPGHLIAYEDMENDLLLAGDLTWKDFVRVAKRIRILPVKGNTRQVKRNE
Sequence of UniProt Q9C7I9 (whole entry, looked up): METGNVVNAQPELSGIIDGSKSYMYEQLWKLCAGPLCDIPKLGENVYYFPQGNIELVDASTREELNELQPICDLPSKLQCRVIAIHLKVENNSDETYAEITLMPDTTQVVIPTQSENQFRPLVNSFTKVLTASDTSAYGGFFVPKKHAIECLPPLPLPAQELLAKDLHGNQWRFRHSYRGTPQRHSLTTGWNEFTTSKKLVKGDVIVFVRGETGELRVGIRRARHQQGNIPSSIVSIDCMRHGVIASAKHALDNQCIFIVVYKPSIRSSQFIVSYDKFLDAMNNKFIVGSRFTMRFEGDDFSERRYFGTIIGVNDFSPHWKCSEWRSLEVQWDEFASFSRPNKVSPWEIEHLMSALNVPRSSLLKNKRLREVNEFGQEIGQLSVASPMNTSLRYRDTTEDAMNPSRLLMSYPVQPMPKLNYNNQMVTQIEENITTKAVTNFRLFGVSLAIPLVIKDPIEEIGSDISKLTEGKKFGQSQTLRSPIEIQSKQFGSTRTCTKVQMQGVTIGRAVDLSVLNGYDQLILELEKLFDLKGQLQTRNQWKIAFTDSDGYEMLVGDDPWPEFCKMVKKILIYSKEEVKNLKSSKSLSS
Sequence of UniProt Q9C5W9 (whole entry, looked up): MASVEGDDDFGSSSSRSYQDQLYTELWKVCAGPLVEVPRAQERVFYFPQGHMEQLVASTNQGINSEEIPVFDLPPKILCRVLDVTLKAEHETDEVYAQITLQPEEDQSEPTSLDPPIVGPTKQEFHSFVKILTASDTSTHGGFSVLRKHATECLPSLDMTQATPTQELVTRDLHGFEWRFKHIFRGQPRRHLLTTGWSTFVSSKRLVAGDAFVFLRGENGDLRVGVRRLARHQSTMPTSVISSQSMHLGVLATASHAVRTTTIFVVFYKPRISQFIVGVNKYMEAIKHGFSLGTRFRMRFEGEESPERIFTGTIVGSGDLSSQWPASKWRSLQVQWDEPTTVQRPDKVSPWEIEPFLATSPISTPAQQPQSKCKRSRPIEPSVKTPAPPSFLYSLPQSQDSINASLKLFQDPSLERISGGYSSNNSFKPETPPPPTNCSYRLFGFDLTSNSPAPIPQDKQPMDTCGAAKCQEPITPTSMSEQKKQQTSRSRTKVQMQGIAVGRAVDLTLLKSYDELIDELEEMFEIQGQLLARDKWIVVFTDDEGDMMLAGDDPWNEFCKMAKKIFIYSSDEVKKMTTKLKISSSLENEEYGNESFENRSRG

Series 1 — method: DHFR PCA, deep sequencing; sample: yeast; added: (+)-ABA 0.032 µM; baseline: wild-type fitted maximum; reading: higher = stronger binding; measurement: relative binding score
Target: ABI1, truncated, D143A, DHFR fusion (Arabidopsis thaliana)
Notes: methotrexate growth selection, single substitutions
Starting sequence: PYL1, truncated, DHFR fusion (Arabidopsis thaliana); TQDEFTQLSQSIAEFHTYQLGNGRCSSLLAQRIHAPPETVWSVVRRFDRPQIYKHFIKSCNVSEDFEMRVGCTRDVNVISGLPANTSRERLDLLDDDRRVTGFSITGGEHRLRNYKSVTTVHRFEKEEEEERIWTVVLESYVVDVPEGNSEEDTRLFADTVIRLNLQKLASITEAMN
D96V: -3.58%
N85Q: 49.9%
E130A: 31.9%
W41E: 2.1%
Y18L: -2.06%
G23S: 16.7%
I57A: 0.364%
V40H: -5.1%
S117A: 3.62%
V136T: 6.09%
E4F: 8.83%
L112S: -0.38%
I172E: -6.43%
V121N: 3.02%
K168Q: 5.52%
G148P: 2.71%
V43Q: -4%
L169E: 0.58%
A30I: 6.47%
D92N: 2.67%
F56G: 2.19%
L29S: 2.51%
L169D: 0.616%

Series 2 — method: RNA Bind-n-Seq; form: RNA; sample: in vitro; concentration: 365 nM; baseline: no-protein control; reading: higher = stronger binding; measurement: RBNS enrichment (R)
Target: RNA binding protein fox-1 homolog 2, RRM domain, GST-SBP tag (RBFOX2, Homo sapiens, UniProt O43251-10, residues 100-194)
Notes: natural RNA segment, single round, ends assumed
Shared flanks, not repeated: GGGAGUUCUACAGUCCGACGAUC … UGGAAUUCUCGGGUGCCAA
Residues (chain): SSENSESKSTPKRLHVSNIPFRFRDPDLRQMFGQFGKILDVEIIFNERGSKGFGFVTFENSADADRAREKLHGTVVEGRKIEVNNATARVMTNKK
CAGGUGGGCUAGCAUCUGUGAGUUUGCCUCGGCUAGCCUUGCUUCCUACAGCCGCCACUGCUCCUCCACCCUGAUCAUCUCACAGGACAGGGUGGACCGGGUUUUUUUUU: 0.4
CAAGAUGCUACUUGUAUCUUUGUCCAUAAAUUGUAAAUAAUUUUAUGCACAUUAUACCAAAUCUUCCUAAAAAGUAAUUUUUCAAAAAAGUAAAAAAGAGAAACUGGAAA: 0.429
UUCUAGAUGUAGGCUAACAAUGAAAAGUAUUUGCCAAACUGAAUAAAACUGUCAUGGUUACCUUGAAGGACAAUGGUUAUUGUUAAAUAUAGUGAUCAUUCAUGUCUAAA: 0.305
GGGAAAACGGCGUCGCCCUCAUUUCAACCCCACUCCUACCCCCUUCCUCAACCCCCAAACAAAACAAACAAACUUCCCUGGCUUCGCACCUGCCUGGGGCCUCGCAGCGG: 1.08
GAGGUUCAAGGGCCUAGGUAGGUGUCUGUAGCUGGGAAUACUUGGGAACAGGGGAAGGGGAAUGUUUUCAAGACAUUUAUCCUGUUAGAAAAUCUUACAGACUAGCUUUA: 0.482
CUAUUUAAAAGAAAGAAAAUGUAUUUUCCAUAGUAGUUUUGUGUAAAUCGUAUGAUUCACCUCAUCUUUAAUAUGCAUUGAAAUAGGUAAUACUAGAUGCAAGUGUUUCC: 0.524
UGACAAGGGCAGGCCUUGAAUUGGGAGCAGCAGCCACCUGGCCUCACUCUGGCCACAGGUGACACUUGGUCCUUGCUGCCACCUGCUUGGGGCUAUGUGGCUACGGCUAC: 0.318
UGACUGCAAAGCCCUGGGUACUUGCCUUCAUGUUCUGGUUUGGUUUUCCCUUUUUCUGCUGCUCUUGGCAGCAGCCUGGUCAUCAUCUGCUUGUGGGAGUGGGAAAUGGG: 0.664
GAGAGAUUUCUGCUAAUUCUGGGCUUUGAAGCGUACGUCUUUUGAGGGGGCAUUUUGAUGUGGUCCUCCUUGCUUCUGGAGGGACUUGGUUCCCUUUAGAAAACCUGCCC: 0.524
GAGGCUCCCACCCACAGGGCUGUCUGUCACAAACCCACCUCUGUUGGGAGCUAUUGAGCCACCUGGGAUGAGAUGACACAAGGCACUCCUACCACUGAGCGCCUUUGCCA: 0.161
AACAUUCUUCAUUGCAAGUAAAAGAUCCAUAAGUGGCAUUUUACACGGCUGCGAGUAUUGUUAUAUCUAAUCCUAUUUUAAAAGAUUUUUGGUAAUAUGAAGCUUGAAUA: 0.353
GGACUGGAUGGAGUGGAGGAGGCCCAGGCCACAGUACCACCCCACCUGCCCAGGCAGCCCCUCGUCACCUACUCCCCGAAGUUACCAGCUCAGCUCGAGUCUUCAGGGCU: 0.193

Series 3 — method: universal PBM; form: double-stranded DNA, one strand shown; sample: in vitro; concentration: not given; reading: higher = stronger binding; measurement: E-score
Target: Sal-like protein 4, full length isoform B (SALL4, Homo sapiens, UniProt Q9UJQ4-2, residues 1-616)
Notes: 8-mer, flanks averaged, mean of replicates
Construct (chain): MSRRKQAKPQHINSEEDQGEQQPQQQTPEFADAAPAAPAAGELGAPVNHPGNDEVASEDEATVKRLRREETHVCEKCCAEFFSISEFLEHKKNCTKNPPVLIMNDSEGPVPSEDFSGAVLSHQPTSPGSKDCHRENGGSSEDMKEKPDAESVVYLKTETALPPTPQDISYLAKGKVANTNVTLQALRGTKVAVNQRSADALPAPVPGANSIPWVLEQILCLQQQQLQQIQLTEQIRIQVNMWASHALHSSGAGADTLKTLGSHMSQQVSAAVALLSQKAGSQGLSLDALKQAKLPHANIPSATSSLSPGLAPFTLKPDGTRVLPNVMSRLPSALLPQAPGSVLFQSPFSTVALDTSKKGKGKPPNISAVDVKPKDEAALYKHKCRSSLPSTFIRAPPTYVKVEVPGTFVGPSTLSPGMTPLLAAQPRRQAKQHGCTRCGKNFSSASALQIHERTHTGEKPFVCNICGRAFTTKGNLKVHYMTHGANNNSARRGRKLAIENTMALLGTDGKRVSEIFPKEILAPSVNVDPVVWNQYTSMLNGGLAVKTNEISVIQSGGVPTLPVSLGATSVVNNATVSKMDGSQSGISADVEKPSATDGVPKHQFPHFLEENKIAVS
ACAAGCAA: 0.144
ACTTTTAA: 0.233
CAGGCTAG: -0.249
TCTTGGAA: 0.0484
CACGGGTC: -0.296
GTAAGTAA: 0.175
CATCGAAG: 0.113
GGCTCATA: 0.116
CAAACACG: 0.0101
GAAGACGA: -0.0995
GAATGCGA: 0.0436
ATTTAGCA: 0.206
ATGTGATC: 0.126
ACATTAGC: -0.0158
ATTGGGTG: 0.0262
ATATTTCC: 0.396
CATATGGG: -0.00936
AGAGGAAA: 0.0624
ACGCAGAG: -0.247
GGGGTAAC: -0.121

Series 4 — method: aptamer microarray, sandwich; form: DNA with 2'F-ANA; sample: in vitro; concentration: 200 nM; added: Cy3 exosite-II aptamer, 400 nM; reading: higher = stronger binding; measurement: mean fluorescence intensity; oligonucleotide: GGTTGGTGTGGTTGG
Target: Prothrombin, mature alpha-thrombin (F2, Homo sapiens, UniProt P00734)
Notes: whole 15-mer aptamer, many near background
2'F-ANA at 5 6 9 10 13 15: 73.3 a.u.
2'F-ANA at 1 2 5 6 9 12 13 14 15: 48.1 a.u.
2'F-ANA at 1 2 3 6 9 10 11 12 13: 74.7 a.u.
2'F-ANA at 1 2 3 4 5 8 11 12 14: 48.2 a.u.
2'F-ANA at 1 2 3 4 7 9 10 12 13 15: 75 a.u.
2'F-ANA at 2 4 12 14 15: 194 a.u.
2'F-ANA at 3 8 10 13 14: 344 a.u.
2'F-ANA at 1 4 5 8 13 15: 49.4 a.u.
2'F-ANA at 5 7 9 11 12 13 14 15: 52.3 a.u.
2'F-ANA at 2 3 7 11 12 15: 1020 a.u.
2'F-ANA at 1 10 14 15: 42.5 a.u.
2'F-ANA at 1 6 8 9 12 14: 67 a.u.
2'F-ANA at 1 2 3 4 5 8 9 10 12 13 14: 46.1 a.u.
2'F-ANA at 4 6 9 10 11 14 15: 60.4 a.u.
2'F-ANA at 1 3 6 7 8 9 10 11 12 13 14 15: 60.8 a.u.
2'F-ANA at 1 2 6 8 14: 78.3 a.u.
2'F-ANA at 1 5 6 7 8 9 10 11 14 15: 50.8 a.u.
2'F-ANA at 2 8 12 14 15: 202 a.u.
2'F-ANA at 1 2 5 6 7 10 11 12 13 15: 52.6 a.u.
2'F-ANA at 1 2 7 8 9 10 11 12 14 15: 49.8 a.u.
2'F-ANA at 1 5 9 11 13 15: 48.9 a.u.
2'F-ANA at 2 3 6 7 8 10 11 12 14: 275 a.u.
2'F-ANA at 4 5 8 9 11 12 15: 102 a.u.
2'F-ANA at 1 5 8 9 10 12 13 14: 40.4 a.u.
2'F-ANA at 1 2 3 9 10 13 14: 97.6 a.u.

Series 5 — Sequence: B1 (IAA30); method: two-hybrid; notes: weak activation fusion; baseline: out of 4 tests; reading: higher = firmer interaction; measurement: positive tests
B1: IAA30 (Arabidopsis thaliana, UniProt Q9M1R4); chain MGRGRSSSSSSIESSCKSNPFGVSSSNTRNLSTDLRLGLSFGSSSGQYYNGGDNHEYDGVGAAEEMMIMEEEEQNECNSVGSFYVKVNMEGVPIGRKIDLLSLNGYHDLITTLDYMFNASILWAEEEDMCSEKSHVLTYADKEGDWMMVGDVPWEMFLSSVRRLKISRAYHY
IAA33 (Arabidopsis thaliana, UniProt Q9FKM7): 2
ARF10 575-693 (Arabidopsis thaliana, UniProt Q9SKN5): 0
ARF7 1030-1164 (Arabidopsis thaliana, UniProt P93022): 1
ARF8 699-811 (Arabidopsis thaliana, UniProt Q9FGV1): 2
ARF20 484-590 (Arabidopsis thaliana, UniProt Q9C7I9): 1
ARF18 482-602 (Arabidopsis thaliana, UniProt Q9C5W9): 1
ARF12 500-593 (Arabidopsis thaliana, UniProt Q9XID4): 2

Single results of other studies
PhoQ, residues 284 288 289 292 302 303 TTSMTC — fold induction (PhoP, residues 12 14 15 18 19 LHHSG (Escherichia coli, UniProt P23836); Sort-seq, measured: YFP reporter; E. coli; PhoQ-PhoP variant library, added: 10 µM Mg2+; baseline: high Mg2+ state, higher = stronger signaling): 12.8

Some of these lines once more (series 2):
UGACAAGGGCAGGCCUUGAAUUGGGAGCAGCAGCCACCUGGCCUCACUCUGGCCACAGGUGACACUUGGUCCUUGCUGCCACCUGCUUGGGGCUAUGUGGCUACGGCUAC: 0.318
GAGAGAUUUCUGCUAAUUCUGGGCUUUGAAGCGUACGUCUUUUGAGGGGGCAUUUUGAUGUGGUCCUCCUUGCUUCUGGAGGGACUUGGUUCCCUUUAGAAAACCUGCCC: 0.524
GAGGUUCAAGGGCCUAGGUAGGUGUCUGUAGCUGGGAAUACUUGGGAACAGGGGAAGGGGAAUGUUUUCAAGACAUUUAUCCUGUUAGAAAAUCUUACAGACUAGCUUUA: 0.482
CAGGUGGGCUAGCAUCUGUGAGUUUGCCUCGGCUAGCCUUGCUUCCUACAGCCGCCACUGCUCCUCCACCCUGAUCAUCUCACAGGACAGGGUGGACCGGGUUUUUUUUU: 0.4
GGACUGGAUGGAGUGGAGGAGGCCCAGGCCACAGUACCACCCCACCUGCCCAGGCAGCCCCUCGUCACCUACUCCCCGAAGUUACCAGCUCAGCUCGAGUCUUCAGGGCU: 0.193
UGACUGCAAAGCCCUGGGUACUUGCCUUCAUGUUCUGGUUUGGUUUUCCCUUUUUCUGCUGCUCUUGGCAGCAGCCUGGUCAUCAUCUGCUUGUGGGAGUGGGAAAUGGG: 0.664
CAAGAUGCUACUUGUAUCUUUGUCCAUAAAUUGUAAAUAAUUUUAUGCACAUUAUACCAAAUCUUCCUAAAAAGUAAUUUUUCAAAAAAGUAAAAAAGAGAAACUGGAAA: 0.429
